Measured values of several laboratories.
Each numbered part is a random draw from the data of one study; scales do not carry over between parts.

Series 1
Organism: Saccharomyces cerevisiae
Effect on: binding
Technique: yeast competitive growth sequencing
Form: peptide
Strain: cyclin D1-Cln2 strain
Matrix: peptide tiling library
Notes: pooled screen
Direction: direction not given
Measurement: enrichment score
RRRRLLFWDKETQI: -2.34
AIRKMREDRWAVIAKM: -1.24
IFNKPECGRVQRAIFQ: -1.56
NARRSLNFGGSTGT: -0.0866
HRRRLLFACSPPPASQ: -1.59
EAAPPTQEAQGETEPT: 0.244
VKTKKRLNFDDK: -0.377
RRRIKLPESDSSED: 1.98
VRDLSYRLVFLACCVA: -0.9
RNRGPKLNAMLRLGVL: -3.33
NRLLKLFTRCLTPLVP: -2.02

Series 2
Target: Histone acetyltransferase KAT6A, both winged helices, GST fusion (KAT6A, Homo sapiens, UniProt Q92794, residues 1-181)
Technique: protein binding microarray
Form: double-stranded DNA, one strand shown
Matrix: in vitro
Tested at: not given
Notes: 8-mer, flanks averaged, mean of 2 arrays, mostly near background
Relative to: not given
Direction: higher = stronger binding
Measurement: E-score
Target sequence (chain): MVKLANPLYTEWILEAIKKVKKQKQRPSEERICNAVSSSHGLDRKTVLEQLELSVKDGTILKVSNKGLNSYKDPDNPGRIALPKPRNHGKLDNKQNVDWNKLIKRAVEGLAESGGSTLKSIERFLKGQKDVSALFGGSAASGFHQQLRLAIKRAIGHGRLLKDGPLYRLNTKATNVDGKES
AATTCCCG: 0.232
AAATATTA: -0.0121
ACGTTCAG: -0.0194
AAATGCAC: -0.107
AGAGGCCT: -0.144
GTGCTCCA: -0.0964
CCCATTTC: -0.224
CACTCTGA: -0.142
GACAGAAA: -0.0997
AAACACCC: 0.107
ACTGGTGC: 0.0588
GGCGTGCA: 0.159
ACATAACA: -0.0379
AGTAAAGC: -0.000165
AATCCCCC: -0.152
AAAGCGAA: 0.152
ACTACTCG: -0.0884
ACTGGTTG: -0.0296

Series 3
Target: Interferon regulatory factor 7, full length, phosphomimetic (IRF7, Homo sapiens, UniProt Q92985, residues 1-503, S101K/S471D/S472D/S475D/S476D/S477D/S483D/S484D/S487D)
Chain of UniProt Q92985 (whole entry, unmodified, looked up): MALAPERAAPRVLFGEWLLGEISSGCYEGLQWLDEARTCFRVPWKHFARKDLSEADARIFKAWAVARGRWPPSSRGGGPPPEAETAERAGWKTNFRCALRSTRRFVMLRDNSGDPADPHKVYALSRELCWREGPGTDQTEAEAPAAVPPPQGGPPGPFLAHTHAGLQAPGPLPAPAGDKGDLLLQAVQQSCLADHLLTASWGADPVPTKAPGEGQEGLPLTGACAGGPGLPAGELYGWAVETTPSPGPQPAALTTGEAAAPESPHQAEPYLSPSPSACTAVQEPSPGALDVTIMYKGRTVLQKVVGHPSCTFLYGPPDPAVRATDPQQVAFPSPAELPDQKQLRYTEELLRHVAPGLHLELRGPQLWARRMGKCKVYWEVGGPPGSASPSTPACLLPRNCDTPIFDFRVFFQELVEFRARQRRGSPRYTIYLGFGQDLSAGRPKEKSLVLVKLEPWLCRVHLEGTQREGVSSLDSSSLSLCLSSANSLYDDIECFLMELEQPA
Technique: protein-binding microarray
Form: double-stranded DNA, one strand shown
Matrix: in vitro
Tested at: 250 nM
Notes: 60-bp whole probe
Added: salmon DNA 0.4 mg/ml
Relative to: random background probes
Direction: higher = stronger binding
Measurement: log fluorescence
All sequences stand within: GCCTAGCAC … GTCTTGATTCGCTTGACGCTGCTG
GACTATGCCGACTTTGGAAGTGTGCTA: 0.0292 z-score
TTAGGACTGGACTATCGATTAGTGCTA: 0.0502 z-score
TTAGAACTGAGTATCGTTTAGTGCTAG: 0.84 z-score
TAAGGTTTCGGTTCCGGTTAGTGCTAG: 13 z-score
TTAGGTCTCGGACTGGGTTCGTGCTAG: 0.427 z-score
TCTGTAATTCTTAGAACAGCGTGCTAG: -0.154 z-score
GACCATATCAGTTTCGAGACGTGCTAG: 4.49 z-score
GACGATTTCGGGTATCGAGCCGTGCTA: 0.45 z-score
TCAAGAATGTCCTTTCTCACTGTGCTA: 0.0725 z-score
TTAGGTTCCGGTTTCGGTTCGTGCTAG: 12.7 z-score
TTAGGTCTCGGTTTCGGATAGTGCTAG: 8.86 z-score
TTAGACCTGAGTATCGATTAGTGCTAG: 0.815 z-score
TTCTGAAGCAGAGCCCTGTTGTGCTAG: -0.505 z-score
CTGGGGGCAGTTTCATGGCCGTGCTAG: -0.541 z-score
AAGCAAAAATGATTGGTTGAGTGCTAG: -0.485 z-score
GACGATTTCAGTCTCTAGACGTGCTAG: 0.347 z-score
GACGAACTGGGCACTGGAGACGTGCTA: -0.649 z-score
TCAATTTTTACCCTCCTACTGTGCTAG: 0.121 z-score
GACGGACTGGGTCACGGGACGTGCTAG: -0.639 z-score

Other studies, line by line
PhoQ, residues 284 288 289 292 302 303 NSMLDC — fold induction (PhoP, residues 12 14 15 18 19 SYFRT (Escherichia coli, UniProt P23836); Sort-seq, refers to: YFP reporter; E. coli; PhoQ-PhoP variant library, added: 10 µM Mg2+; relative to: high Mg2+ state, higher = stronger signaling): 4.95

A few entries again (series 2):
ACATAACA: -0.0379
ACTGGTTG: -0.0296
ACTACTCG: -0.0884
GTGCTCCA: -0.0964
AGTAAAGC: -0.000165
AAATATTA: -0.0121
